# Published values from different studies.
# Numbered parts are unrelated; each lists some results of a single study.

# Block 1 — technique: protein binding microarray; form: double-stranded DNA, one strand shown; matrix: in vitro; concentration: not given; relative to: not given; direction: higher = stronger binding
# Target: Histone acetyltransferase KAT6A, both winged helices, GST fusion (KAT6A, Homo sapiens, UniProt Q92794, residues 1-181)
# Notes: 8-mer, flanks averaged, mean of 2 arrays, mostly near background
# Construct (chain): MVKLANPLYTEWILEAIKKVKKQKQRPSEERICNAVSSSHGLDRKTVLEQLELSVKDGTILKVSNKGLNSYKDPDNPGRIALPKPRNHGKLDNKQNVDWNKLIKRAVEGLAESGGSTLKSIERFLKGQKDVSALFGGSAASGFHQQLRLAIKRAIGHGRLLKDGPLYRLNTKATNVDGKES
Sequence,E-score
GTCACTTA,-0.0521
AATGACAA,-0.229
ACCGATTC,0.194
AAGCCAAG,-0.194
CTCATGTC,-0.00847

# Block 2 — technique: RNA Bind-n-Seq; form: RNA; matrix: in vitro; concentration: 365 nM; relative to: no-protein control; direction: higher = stronger binding
# Target: RNA binding protein fox-1 homolog 2, RRM domain, GST-SBP tag (RBFOX2, Homo sapiens, UniProt O43251-10, residues 100-194)
# Notes: natural RNA segment, single round, ends assumed
Sequence,RBNS enrichment (R)
GGGAGUUCUACAGUCCGACGAUCAUGAAGGAUCUCAUUGGACGUCCUGUCAAUCAUUAAUCUACAUGCAGGCUUGUUCCCACACUACCUCUUUAAAGCGAUUCUUCCUAUGCUGGUCUGUUCAAUCCUGCCCUUGGAAUUCUCGGGUGCCAA,0.512
GGGAGUUCUACAGUCCGACGAUCUUGUCCUCAGGGCUACAGCAGUAGGGAGGUCAGUGCUUCGUGCCUCGAUUGAAGGUGACCUCUGCCCCAGAUAGGUGGUGCCAGUGGCUUAUUAAUUCCGAUACUAGUUUUGGAAUUCUCGGGUGCCAA,2.6
GGGAGUUCUACAGUCCGACGAUCAUACCGGAGUCUACCCUGCUUCACCAUCUCCCACCCUUAUACUGUCUCUGAUGAGUUAUGCUAAGUUCUAGUCUGAUUAUCCUCCUGGUUCCAUUUAAGGCCCUCAGAGAUGGAAUUCUCGGGUGCCAA,0.483

# Block 3 — technique: universal PBM; form: double-stranded DNA, one strand shown; matrix: in vitro; concentration: 600 nM; direction: higher = stronger binding
# Target: Sal-like protein 4, full length isoform A (SALL4, Homo sapiens, UniProt Q9UJQ4, residues 1-1053)
# UniProt Q9UJQ4, sequence (whole entry, looked up): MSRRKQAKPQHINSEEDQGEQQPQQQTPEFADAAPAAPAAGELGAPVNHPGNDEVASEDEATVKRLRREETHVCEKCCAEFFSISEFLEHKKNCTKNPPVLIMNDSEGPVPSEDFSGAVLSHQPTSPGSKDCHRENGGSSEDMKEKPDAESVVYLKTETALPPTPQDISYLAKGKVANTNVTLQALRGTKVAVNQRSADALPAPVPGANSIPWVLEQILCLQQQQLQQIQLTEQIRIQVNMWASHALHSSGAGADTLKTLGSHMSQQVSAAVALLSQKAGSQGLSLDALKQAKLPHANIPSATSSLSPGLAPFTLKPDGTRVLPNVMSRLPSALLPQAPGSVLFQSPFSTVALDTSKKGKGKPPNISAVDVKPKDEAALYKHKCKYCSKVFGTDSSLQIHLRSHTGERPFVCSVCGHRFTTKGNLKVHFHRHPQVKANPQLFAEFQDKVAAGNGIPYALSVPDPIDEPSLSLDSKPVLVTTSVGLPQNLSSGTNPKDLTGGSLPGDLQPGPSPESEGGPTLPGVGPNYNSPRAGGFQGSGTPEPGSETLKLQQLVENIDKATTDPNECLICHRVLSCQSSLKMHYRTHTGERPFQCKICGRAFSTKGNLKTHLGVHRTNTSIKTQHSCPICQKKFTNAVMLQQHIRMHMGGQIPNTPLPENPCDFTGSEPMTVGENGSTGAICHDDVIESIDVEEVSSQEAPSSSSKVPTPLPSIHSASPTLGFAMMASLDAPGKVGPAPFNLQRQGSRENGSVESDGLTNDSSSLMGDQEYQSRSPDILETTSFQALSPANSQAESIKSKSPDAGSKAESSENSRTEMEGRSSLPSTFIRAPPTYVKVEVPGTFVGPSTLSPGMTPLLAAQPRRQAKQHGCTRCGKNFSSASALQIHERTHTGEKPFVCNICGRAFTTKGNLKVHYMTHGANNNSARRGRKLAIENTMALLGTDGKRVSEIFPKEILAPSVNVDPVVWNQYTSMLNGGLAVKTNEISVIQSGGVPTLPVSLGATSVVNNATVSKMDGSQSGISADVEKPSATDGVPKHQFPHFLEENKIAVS
# Notes: 8-mer, flanks averaged, mean of replicates
Sequence,E-score
CAGGCCTG,-0.28
CAGCAGCG,-0.261
CGCCAGCC,-0.257
CAACTCCG,-0.23
AGTAAGGC,-0.111

# Mixed results
Molecule,target,assay,system,setting,how to read,measurement,result
"PhoQ, residues 284 288 289 292 302 303 TASMAF","PhoP, residues 12 14 15 18 19 LHHVQ (Escherichia coli, UniProt P23836)","Sort-seq, measured: YFP reporter",E. coli,"PhoQ-PhoP variant library, together with: 10 µM Mg2+","relative to: high Mg2+ state, higher = stronger signaling",fold induction,22

# Excerpt of the above (block 3):
Sequence,E-score
CAGGCCTG,-0.28
